Assay results collected from several papers.
Lines come from different studies, so protocols differ.
4'-phosphopantetheinyl transferase PptT: 4'-phosphopantetheinyl transferase PptT (Mycobacterium tuberculosis, UniProt O33336)
UniProt O33336, sequence (whole entry, looked up): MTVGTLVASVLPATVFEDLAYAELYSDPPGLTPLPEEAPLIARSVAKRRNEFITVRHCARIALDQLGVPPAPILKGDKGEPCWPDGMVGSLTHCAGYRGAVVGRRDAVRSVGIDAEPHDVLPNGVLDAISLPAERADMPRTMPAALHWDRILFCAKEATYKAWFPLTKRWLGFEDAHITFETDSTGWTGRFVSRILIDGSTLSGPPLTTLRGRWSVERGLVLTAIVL
UniProt Q01959, sequence (whole entry, looked up): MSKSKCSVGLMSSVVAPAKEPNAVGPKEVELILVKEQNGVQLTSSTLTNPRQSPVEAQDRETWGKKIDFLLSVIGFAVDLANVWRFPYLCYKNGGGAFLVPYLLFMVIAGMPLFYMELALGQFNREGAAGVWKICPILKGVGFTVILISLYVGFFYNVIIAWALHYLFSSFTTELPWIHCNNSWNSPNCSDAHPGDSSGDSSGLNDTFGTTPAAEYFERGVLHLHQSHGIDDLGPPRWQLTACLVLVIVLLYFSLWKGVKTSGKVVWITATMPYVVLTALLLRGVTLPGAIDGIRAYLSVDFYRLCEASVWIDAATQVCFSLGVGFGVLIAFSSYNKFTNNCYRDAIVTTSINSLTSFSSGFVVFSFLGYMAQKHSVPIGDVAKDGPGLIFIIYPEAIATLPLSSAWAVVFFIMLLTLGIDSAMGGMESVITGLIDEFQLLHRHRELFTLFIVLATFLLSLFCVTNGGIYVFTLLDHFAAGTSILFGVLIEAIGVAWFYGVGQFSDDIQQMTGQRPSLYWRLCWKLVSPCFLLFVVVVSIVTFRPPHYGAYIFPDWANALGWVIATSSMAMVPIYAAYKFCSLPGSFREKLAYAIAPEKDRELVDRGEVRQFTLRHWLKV
UniProt Q04759, sequence (whole entry, looked up): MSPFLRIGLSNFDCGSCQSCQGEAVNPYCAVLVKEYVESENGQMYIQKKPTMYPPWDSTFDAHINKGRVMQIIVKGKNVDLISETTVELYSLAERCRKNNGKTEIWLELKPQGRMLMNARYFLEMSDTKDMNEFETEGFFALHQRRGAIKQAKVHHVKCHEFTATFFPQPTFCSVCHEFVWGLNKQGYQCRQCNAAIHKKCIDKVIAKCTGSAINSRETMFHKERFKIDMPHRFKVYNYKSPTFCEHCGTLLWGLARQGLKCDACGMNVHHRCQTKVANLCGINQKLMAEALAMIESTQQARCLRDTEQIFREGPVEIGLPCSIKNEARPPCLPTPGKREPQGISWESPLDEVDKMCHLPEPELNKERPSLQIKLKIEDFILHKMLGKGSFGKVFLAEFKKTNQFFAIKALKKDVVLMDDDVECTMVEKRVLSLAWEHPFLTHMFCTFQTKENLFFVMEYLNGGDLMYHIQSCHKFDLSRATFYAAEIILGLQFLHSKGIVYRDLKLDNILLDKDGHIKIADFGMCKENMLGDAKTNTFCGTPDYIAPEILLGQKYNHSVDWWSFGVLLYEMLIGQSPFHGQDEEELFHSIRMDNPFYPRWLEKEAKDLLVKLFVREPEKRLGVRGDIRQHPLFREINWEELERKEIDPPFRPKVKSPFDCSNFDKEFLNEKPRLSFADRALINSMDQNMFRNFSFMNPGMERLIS
UniProt P11229, sequence (whole entry, looked up): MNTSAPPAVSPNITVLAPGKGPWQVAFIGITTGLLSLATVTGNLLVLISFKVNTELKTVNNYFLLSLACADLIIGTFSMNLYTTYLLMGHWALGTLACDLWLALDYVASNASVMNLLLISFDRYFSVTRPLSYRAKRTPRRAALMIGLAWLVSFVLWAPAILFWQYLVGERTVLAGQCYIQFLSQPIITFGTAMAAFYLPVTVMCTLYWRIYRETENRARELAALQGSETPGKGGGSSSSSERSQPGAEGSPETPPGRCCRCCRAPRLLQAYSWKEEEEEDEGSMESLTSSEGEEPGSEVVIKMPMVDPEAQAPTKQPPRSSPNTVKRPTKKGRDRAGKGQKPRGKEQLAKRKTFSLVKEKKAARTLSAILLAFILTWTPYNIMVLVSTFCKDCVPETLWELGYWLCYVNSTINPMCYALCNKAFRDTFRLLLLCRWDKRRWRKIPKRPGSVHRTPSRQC
UniProt P51956, sequence (whole entry, looked up): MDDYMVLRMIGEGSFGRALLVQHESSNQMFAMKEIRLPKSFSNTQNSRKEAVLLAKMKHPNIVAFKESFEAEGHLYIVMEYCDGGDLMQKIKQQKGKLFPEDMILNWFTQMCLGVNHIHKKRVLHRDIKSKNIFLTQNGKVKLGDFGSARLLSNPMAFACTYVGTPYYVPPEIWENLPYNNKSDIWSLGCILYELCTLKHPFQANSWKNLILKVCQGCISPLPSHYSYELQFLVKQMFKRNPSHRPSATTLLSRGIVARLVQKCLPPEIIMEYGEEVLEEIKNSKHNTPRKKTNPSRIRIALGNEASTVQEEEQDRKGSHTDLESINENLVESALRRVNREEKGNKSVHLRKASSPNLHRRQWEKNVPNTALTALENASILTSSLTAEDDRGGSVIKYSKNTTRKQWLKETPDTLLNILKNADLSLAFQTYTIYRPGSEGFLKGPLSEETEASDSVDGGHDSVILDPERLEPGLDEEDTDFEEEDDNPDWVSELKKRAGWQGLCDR
UniProt P34972, sequence (whole entry, looked up): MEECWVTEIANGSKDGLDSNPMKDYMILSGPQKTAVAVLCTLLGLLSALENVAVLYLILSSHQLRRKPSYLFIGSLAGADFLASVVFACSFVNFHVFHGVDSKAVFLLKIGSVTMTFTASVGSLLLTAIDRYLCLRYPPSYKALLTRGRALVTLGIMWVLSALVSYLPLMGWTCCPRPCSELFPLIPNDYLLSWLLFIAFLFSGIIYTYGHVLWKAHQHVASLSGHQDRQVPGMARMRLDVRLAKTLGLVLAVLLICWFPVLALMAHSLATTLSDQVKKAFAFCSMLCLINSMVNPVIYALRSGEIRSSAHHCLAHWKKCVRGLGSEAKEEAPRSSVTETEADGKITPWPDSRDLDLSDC
UniProt P35372, sequence (whole entry, looked up): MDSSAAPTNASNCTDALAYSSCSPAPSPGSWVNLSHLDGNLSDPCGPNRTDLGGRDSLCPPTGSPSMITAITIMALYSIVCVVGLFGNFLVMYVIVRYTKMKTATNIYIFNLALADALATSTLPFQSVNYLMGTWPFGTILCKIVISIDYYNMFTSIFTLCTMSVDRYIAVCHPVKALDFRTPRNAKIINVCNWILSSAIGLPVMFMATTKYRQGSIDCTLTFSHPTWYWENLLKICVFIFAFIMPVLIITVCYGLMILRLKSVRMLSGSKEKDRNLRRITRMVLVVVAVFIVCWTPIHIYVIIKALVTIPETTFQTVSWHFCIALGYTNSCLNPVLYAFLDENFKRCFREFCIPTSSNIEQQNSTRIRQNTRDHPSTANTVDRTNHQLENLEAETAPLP
UniProt P42336, sequence (whole entry, unmodified, looked up): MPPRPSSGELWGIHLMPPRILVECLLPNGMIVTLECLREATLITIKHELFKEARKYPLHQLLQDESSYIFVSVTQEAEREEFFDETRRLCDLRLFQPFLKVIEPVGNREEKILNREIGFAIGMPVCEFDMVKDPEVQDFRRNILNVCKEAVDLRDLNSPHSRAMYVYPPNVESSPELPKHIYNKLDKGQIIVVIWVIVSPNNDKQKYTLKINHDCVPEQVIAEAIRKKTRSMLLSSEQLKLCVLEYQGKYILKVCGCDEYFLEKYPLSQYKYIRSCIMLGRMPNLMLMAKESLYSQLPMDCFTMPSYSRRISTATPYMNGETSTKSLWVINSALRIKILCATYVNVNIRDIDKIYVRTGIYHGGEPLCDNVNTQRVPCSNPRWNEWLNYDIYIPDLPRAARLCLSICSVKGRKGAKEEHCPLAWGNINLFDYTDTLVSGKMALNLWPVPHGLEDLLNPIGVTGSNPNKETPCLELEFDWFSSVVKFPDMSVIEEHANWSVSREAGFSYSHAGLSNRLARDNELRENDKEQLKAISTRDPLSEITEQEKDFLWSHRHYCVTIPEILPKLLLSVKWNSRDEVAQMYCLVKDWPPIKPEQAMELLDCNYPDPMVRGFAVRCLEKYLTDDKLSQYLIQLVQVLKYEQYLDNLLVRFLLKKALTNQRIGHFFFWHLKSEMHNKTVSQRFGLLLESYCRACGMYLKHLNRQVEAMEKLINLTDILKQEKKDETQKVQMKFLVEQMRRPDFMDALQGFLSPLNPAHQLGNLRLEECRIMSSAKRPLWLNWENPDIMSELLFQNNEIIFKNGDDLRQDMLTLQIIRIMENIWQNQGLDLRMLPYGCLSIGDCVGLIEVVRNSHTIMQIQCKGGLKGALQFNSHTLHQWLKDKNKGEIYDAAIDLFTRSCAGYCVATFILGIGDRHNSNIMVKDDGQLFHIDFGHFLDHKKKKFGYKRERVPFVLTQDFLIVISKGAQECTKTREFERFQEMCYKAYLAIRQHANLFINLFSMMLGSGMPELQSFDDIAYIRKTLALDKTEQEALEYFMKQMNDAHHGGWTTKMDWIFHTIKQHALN

The IC50 of `CC(c1cccnc1)n1c(=S)[nH]c2ccc(Cl)cc2c1=O` (centres unmarked) is reported as 0.71 µM (4'-phosphopantetheinyl transferase PptT; enzyme activity, inhibitor, FP).
With `C#Cc1n[nH]c2c(-c3cn([C@@H](C)c4ccccn4)c(=O)[nH]c3=O)cc(F)cc12` the inhibition was 10.4% (Serine/threonine-protein kinase mTOR (MTOR, Homo sapiens, UniProt P42345); enzyme activity, inhibitor; 0.1 µM).
With `[2H]c1c([2H])c([C@]2([2H])CCCN2C(=O)C(C)(C)Oc2ccc3cn[nH]c3c2)c([2H])c([2H])c1C([2H])([2H])[2H]` the remaining binding was 75% (Protein kinase C theta type (PRKCQ, Homo sapiens, UniProt Q04759); binding, competition with immobilised ligand; 1 µM).
For `Nc1ncc(-c2nc(N3CCOCC3)nc(N3CCOCC3)n2)c(C(F)F)n1`, the remaining binding was 0% (Phosphatidylinositol 4,5-bisphosphate 3-kinase catalytic subunit alpha isoform (PIK3CA, Homo sapiens, UniProt P42336, E542K); binding, competition with immobilised ligand; 10 µM).
`CN1CCC[C@H]1c1cccnc1` has an inhibition of -6.15% (Sodium-dependent dopamine transporter (SLC6A3, Homo sapiens, UniProt Q01959); ligand displacement; 50 µM).
`COc1ncccc1-c1cnn2ccc(N3CCN(C(=O)OC(C)C)CC3)nc12` has a remaining binding of 84% (Serine/threonine-protein kinase Nek3 (NEK3, Homo sapiens, UniProt P51956); binding, competition with immobilised ligand; 1 µM).
For `Oc1cccc(N2C[C@H]3CC[C@@H](C2)N3CCCc2ccccc2)c1`, the Emax was 99.7% (Mu-type opioid receptor (OPRM1, Homo sapiens, UniProt P35372); cAMP, agonist; OPRM1).
With `CC(C)CC(=O)OC[C@H]1O[C@@](C#N)(c2ccc3c(N)ncnn23)[C@H](O)[C@@H]1O` the inhibition was -9% (Muscarinic acetylcholine receptor M1 (CHRM1, Homo sapiens, UniProt P11229); cell-free assay; 20 µM).
`CCCCC/C=C\C/C=C\C/C=C\Cc1ccccc1CCCC(=O)N[C@H](C)CO` has an Emax of 100% (Cannabinoid receptor 2 (CNR2, Homo sapiens, UniProt P34972); β-arrestin recruitment, agonist).
`Cc1nn(C)cc1-c1nc2c(N3CCN(Cc4ccc(Cl)cc4)CC3)c(Cl)cnc2[nH]1` has a remaining binding of 0.75% (Receptor-type tyrosine-protein kinase FLT3 (FLT3, Homo sapiens, UniProt P36888, D835H); binding, competition with immobilised ligand; 1 µM).
`CN(C)CCC(c1cccnc1)n1c(=S)[nH]c2ccc(Cl)cc2c1=O` (centres unmarked) has an IC50 of 20.4 µM (4'-phosphopantetheinyl transferase PptT; enzyme activity, inhibitor, FP).

A few entries again:
`CN(C)CCC(c1cccnc1)n1c(=S)[nH]c2ccc(Cl)cc2c1=O` (centres unmarked) has an IC50 of 20.4 µM (4'-phosphopantetheinyl transferase PptT; enzyme activity, inhibitor, FP).
